Measurements pooled from the literature.
Each numbered part is a random draw from the data of one study; scales do not carry over between parts. Positions count from the first letter of the parent shown.

Block 1
Target: Ras GTPase-activating protein-binding protein 1, C-terminal RGG region (G3BP1, Homo sapiens, UniProt Q13283)
UniProt Q13283, sequence (whole entry, looked up): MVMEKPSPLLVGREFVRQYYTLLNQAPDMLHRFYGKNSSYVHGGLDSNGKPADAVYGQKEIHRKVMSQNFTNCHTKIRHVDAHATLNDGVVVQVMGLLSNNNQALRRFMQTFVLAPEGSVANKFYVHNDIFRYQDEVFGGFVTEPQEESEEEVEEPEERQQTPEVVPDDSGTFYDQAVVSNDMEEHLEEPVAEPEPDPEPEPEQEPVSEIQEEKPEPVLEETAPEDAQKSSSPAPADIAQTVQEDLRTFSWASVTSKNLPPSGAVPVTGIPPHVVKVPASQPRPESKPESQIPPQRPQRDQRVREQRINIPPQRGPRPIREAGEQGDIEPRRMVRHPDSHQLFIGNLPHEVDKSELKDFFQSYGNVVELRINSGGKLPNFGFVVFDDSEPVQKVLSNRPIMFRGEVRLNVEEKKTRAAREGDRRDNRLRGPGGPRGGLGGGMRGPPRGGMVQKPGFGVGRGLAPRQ
Technique: RNA Bind-n-Seq
Molecule type: RNA
Matrix: in vitro
Tested at: 1 µM
Notes: whole 134-nt RNA, ends assumed
Added: 150 mM KCl
Baseline: input library
Direction: higher = stronger binding
All sequences stand within: GGGAGUUCUACAGUCCGACGAUC … UGGAAUUCUCGGGUGUCAAGG
| Oligonucleotide | log2 enrichment |
| --- | --- |
| AGUCCUGUGCUACACAUCGUAUGUACCGAAUCGGGAAAAGGGGAAAAGGGGAAAAGGGAAAGUAUUAUGUUACGCCGUUCGGAUCUGCAC | 0.621 |
| AGUCCUGUGCUACACAUCGUAUGUACCGAAUCGGGUUUUUUUGGGUUUGGGAAAGGGAAAGUAUUAUGUUACGCCGUUCGGAUCUGCACU | 0.768 |
| CACAGACAACACGCACCCACACAGACACAGAAGGAAGGGGUUGGGAUGGGGACAGGGUGCACAGCAGGGCGGGGUAGGACCCCAGCCCCU | -0.13 |
| AGUCCUGUGCUACACAUCGUAUGUACCGAAUCGGGGAGGGGAAAAAAAGGGGAGGGGAAAGUAUUAUGUUACGCCGUUCGGAUCUGCACU | 2.39 |
| CCUGUGCUACACAUCGUAUGUACCGAAUCGGGGAAAAAAAGGAAAAAAAGGAAAAAAAGGGAAAGUAUUAUGUUACGCCGUUCGGAUCUG | -1.81 |
| GUCCUGUGCUACACAUCGUAUGUACCGAAUCAAACCCCCAAACCCCCCCAAAUUUAAAAAAGUAUUAUGUUACGCCGUUCGGAUCUGCAC | -0.826 |
| AGGCUAUGGAGGCUAUGAUGAUUACAAUGGCUAUAAUGAUGGCUAUGGAUUUGGGUCAGAUAGAUUUGGAAGAGGUAAGGUAAGAAUUGA | -0.675 |
| UUCCUCAAGUCCUGUGCUACACAUCGUAUGUACCGAAUCGGAGGAGGAGGGAAAGUAUUAUGUUACGCCGUUCGGAUCUGCACUUCCAGC | -1.3 |
| AGUCCUGUGCUACACAUCGUAUGUACCGAAUCGGGUUUUGGGGUUUUGGGUUUUGGGAAAGUAUUAUGUUACGCCGUUCGGAUCUGCACU | 1.12 |
| UGGGAGGUGGAUUUUGUUUAUUUUUUGAGCUCAUUUCCAGGGGUGGGAAUUUUUUUUUAAUAUGUGUCAUGAAUAAAGUUGUUUUUGAAA | 3.73 |
| CACAGACAACACGCACCCACACAGACACAGAGGGAAGGGGUUGGGAUGGGGACAGGGUGCACAGCAGGGCGGGGUAGGACCCCAGCCCUU | -1.08 |
| UUGUCUACAGAACUAGACAGUACGGAUGGUGCCAAAGUUUUUAGUAAACAACCAGGAAGAAUCCAAAGAGUAGCAAGAGGAUCGGGUGUA | -2.07 |
| ACCAUGCAGGUGGGCAUUUUUGGGAAGUGGGGCAAGGGGGGGAUAGGGAGGGGGGUAACACUUUGGGAACAGGUGGUCCCAGGUCGUUUC | -1.31 |
| UCCUGUGCUACACAUCGUAUGUACCGAAUCAAACCCCCAAAUUUUUUUAAACCCCCAAAAAAGUAUUAUGUUACGCCGUUCGGAUCUGCA | -1 |

Block 2
Target: Histone acetyltransferase KAT6A, winged helix 2, GST fusion (KAT6A, Homo sapiens, UniProt Q92794, residues 85-181)
Technique: protein binding microarray
Molecule type: double-stranded DNA, one strand shown
Matrix: in vitro
Tested at: not given
Notes: 8-mer, flanks averaged, mean of 2 arrays, mostly near background
Baseline: not given
Direction: higher = stronger binding
Residues (chain): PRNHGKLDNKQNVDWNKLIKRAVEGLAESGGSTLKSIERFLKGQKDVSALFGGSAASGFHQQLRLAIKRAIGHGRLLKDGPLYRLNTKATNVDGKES
| Oligonucleotide | E-score |
| --- | --- |
| ACACGCGA | 0.0825 |
| AGTACGAC | -0.159 |
| CGGCCATC | -0.0184 |
| ACGCGACC | 0.0381 |
| GGACTCCA | -0.0785 |
| AAAGGCTT | -0.17 |
| GGAATCTA | -0.185 |
| GGGTTAGA | -0.17 |
| AAGGGTGG | -0.179 |
| ATTCTGTC | -0.118 |
| TCGGTAAA | -0.11 |
| ATTATCAA | 0.0983 |
| CTCCACTC | -0.0891 |
| GGCAGGCA | 0.0976 |
| CAACCGGA | 0.03 |
| CTCCCCGA | 0.0954 |
| CTCGGCCA | 0.288 |
| CACCTATC | -0.186 |
| AGCGAAGC | 0.25 |
| AGATATCC | 0.0423 |
| GGCCCCCC | 0.152 |

Block 3
Target: CRIPT, C-terminal peptide
Technique: DHFR complementation, deep sequencing
Matrix: yeast
Notes: single substitutions, model-inferred values
Baseline: wild type
Direction: higher = weaker binding
Starting sequence: ERBIN, PDZ domain 1 (human); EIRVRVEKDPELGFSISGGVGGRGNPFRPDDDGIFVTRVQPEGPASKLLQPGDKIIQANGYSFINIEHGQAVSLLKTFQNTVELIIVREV; partner TKNYKQTSV
| Variant | binding free energy change |
| --- | --- |
| N25I | 0.851 kcal/mol |
| L74N | 0.215 kcal/mol |
| I16E | 0.206 kcal/mol |
| K54T | 1.02 kcal/mol |
| G33C | 0.946 kcal/mol |
| F35N | 0.89 kcal/mol |
| F63R | 0.564 kcal/mol |
| Q79P | 0.0852 kcal/mol |
| I55E | 0.499 kcal/mol |
| T81H | 0.22 kcal/mol |
| E1N | 0.226 kcal/mol |
| I64W | -0.0943 kcal/mol |
| S46F | -0.0327 kcal/mol |
| P44F | 1.29 kcal/mol |
| E42H | 0.0643 kcal/mol |
| T77D | 0.134 kcal/mol |
| I55Q | 0.0491 kcal/mol |
| R28A | -0.0108 kcal/mol |
| V82Y | 1.6 kcal/mol |
| P51E | 0.191 kcal/mol |
| F27Y | 0.0405 kcal/mol |
| F78C | 0.294 kcal/mol |
| A58C | 0.287 kcal/mol |
| G60T | 0.108 kcal/mol |
| F78N | 0.352 kcal/mol |

Block 4
Target: Centromere-binding protein 1, full length, N-terminal tag (CBF1, Saccharomyces cerevisiae, UniProt P17106, residues 1-351)
UniProt P17106, sequence (whole entry, looked up): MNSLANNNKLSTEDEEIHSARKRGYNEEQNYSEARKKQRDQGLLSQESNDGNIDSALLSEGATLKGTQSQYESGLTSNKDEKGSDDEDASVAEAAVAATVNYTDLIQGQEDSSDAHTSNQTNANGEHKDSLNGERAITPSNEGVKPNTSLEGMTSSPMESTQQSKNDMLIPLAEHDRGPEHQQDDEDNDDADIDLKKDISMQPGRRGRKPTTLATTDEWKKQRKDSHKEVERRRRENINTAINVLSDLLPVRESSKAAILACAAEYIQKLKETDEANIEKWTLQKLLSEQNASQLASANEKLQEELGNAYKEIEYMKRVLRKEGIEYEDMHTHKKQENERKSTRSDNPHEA
Technique: protein-binding microarray
Molecule type: double-stranded DNA, one strand shown
Matrix: in vitro
Tested at: 0.8 µM
Notes: whole 60-bp probe, no competitor
Direction: higher = stronger binding
All sequences stand within: … GTCTTGATTCGCTTGACGCTGCTG
| Oligonucleotide | fluorescence intensity |
| --- | --- |
| GAATAGGCTCTAAATTGCGTGCCTGAAATCTGCTAG | 512 a.u. |
| GAAACGACTTGCGCACATGTGAATCATTAACAATAG | 876 a.u. |
| CTATGAATAGTACATGATGCAATAGAAGGTGGATTC | 536 a.u. |
| GAATCTAGTTTTCAACATGTGGTGGCTTGTTCTTAG | 594 a.u. |
| GAATTAGGTTGATGCCACGCACGACAATGTAGCTAG | 511 a.u. |
| GAAAATATCAACGGCCACACCATAGATTCCTTTTAG | 488 a.u. |
| GAATAATTTGCTGATCACATTTGAATCAAAAAATAG | 729 a.u. |
| CTAGTAAATAGAACACACGTTTTTTAATTTATTTTC | 652 a.u. |
| GAATTTAATGAGTGACACGATTTGTTTTGATAATAG | 546 a.u. |
| GAAATTTCACATCATCAGGTGATGTCAACTCAGTAG | 2290 a.u. |
| GAACGTATTTGCGCTCACGTTGCACGAACACGGTAG | 1330 a.u. |
| GAATATCAGAGAAGTGGGGTGAGCAAAGTATAATAG | 568 a.u. |
| GAAATTGACGGTATACCCGTGTTTTTCTCATTATAG | 524 a.u. |
| CTATGTTATCAGTGTCTGATGCAGAGGTATTACTTC | 521 a.u. |
| GAACAGCTTCCATTACATCTGATGCTATTTCTTTAG | 516 a.u. |
| TGTACGAAGCTATTCCACGTGACTATAGTAGTTAGG | 11700 a.u. |
| CTATTACAAAATTTCCACGCAACAGCTTTTATTTTC | 507 a.u. |
| CTAGCCGTGTCAGGTCACGTGAAGAGAGAAATTTTC | 24100 a.u. |
| GAAACCAATGAGTCAAACGTGAGCGATGCTCCCTAG | 510 a.u. |
| GAATTTTTGATAATTCACGTGTAATTAAGAACATAG | 2900 a.u. |
| GAAACTTAAAAACTTCAAATCACGTATGAAAAATAG | 711 a.u. |
| GAAATGAAATAAGAAGTGATGATGCTAAAGTGGTAG | 543 a.u. |
| TGTACGAAGCTATATCAGTTGCGTATAGTAGTTAGG | 523 a.u. |
| GAAAGAAATGTGCCCAACGTGACCATGGCTCTTTAG | 1830 a.u. |
| CTATTTCATGCCATTGGTGACACGAAAAAAAAATTC | 576 a.u. |

Block 5
Target: Interferon regulatory factor 3, full length, phosphomimetic (IRF3, Homo sapiens, UniProt Q14653, residues 1-427, S386D/S396D/S398D/S402D/T404D/S405D)
UniProt Q14653, sequence (whole entry, unmodified, looked up): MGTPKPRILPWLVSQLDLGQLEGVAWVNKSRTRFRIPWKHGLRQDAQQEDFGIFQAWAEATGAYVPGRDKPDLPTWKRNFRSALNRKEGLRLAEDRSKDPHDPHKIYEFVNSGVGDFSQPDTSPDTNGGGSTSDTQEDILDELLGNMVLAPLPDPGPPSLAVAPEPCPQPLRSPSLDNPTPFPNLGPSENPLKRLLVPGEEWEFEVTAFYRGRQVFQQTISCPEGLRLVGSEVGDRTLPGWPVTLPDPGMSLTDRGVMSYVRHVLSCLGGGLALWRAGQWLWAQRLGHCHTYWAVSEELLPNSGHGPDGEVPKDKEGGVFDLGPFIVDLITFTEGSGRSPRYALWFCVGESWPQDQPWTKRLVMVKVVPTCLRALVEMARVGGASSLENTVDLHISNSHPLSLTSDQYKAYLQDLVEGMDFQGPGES
Technique: protein-binding microarray
Molecule type: double-stranded DNA, one strand shown
Matrix: in vitro
Tested at: 2540 nM top
Notes: 60-bp whole probe
Added: salmon DNA 0.4 mg/ml
Baseline: random background probes
Direction: higher = stronger binding
All sequences stand within: GCCTAGCAC … GTCTTGATTCGCTTGACGCTGCTG
| Oligonucleotide | fitted relative affinity [z-score] |
| --- | --- |
| TTAGGTATCGACACAGGGTTAGTGCTA | 0.0802 |
| TTACGTCTCCTTCTCCTTTAGTGCTAG | 3.45 |
| TTAGGTATCGCCACTGGGTTAGTGCTA | -0.252 |
| TTAGGACTGAACTATCGGTTAGTGCTA | 0.0816 |
| GACGATCTCAGTCTCGAGCCGTGCTAG | 0.522 |
| GACGGTATCGGACTGCGGACGTGCTAG | 1.61 |
| GACGGTAACGGTTTCGGGACGTGCTAG | 2.76 |
| TCTACTGTCTGTTTCCTCTTGTGCTAG | 2.11 |
| TCACTGATCCATTTTGGACTGTGCTAG | 1.86 |
| TTAGATTTCGGGTTTCGATTTGTGCTA | 4.15 |
| TTAGAGCTGAGTCTCGATTAGTGCTAG | -0.439 |
| TCAACTCTAATCTCACTCACTGTGCTA | 0.147 |
| GCAAAAATGATTGGTTGAACGTGCTAG | -0.274 |
| TTAGAACTGAGACTGGATTGGTGCTAG | -0.319 |
| TCAATTTTTTTTTTCTAACTGTGCTAG | 0.982 |
| TCATCTTTCCTTACTTCACTGTGCTAG | 3.41 |
| GACGGTTTTGGTTTCGGGACGTGCTAG | 6.47 |

Excerpt of the above (block 4):
| Oligonucleotide | fluorescence intensity |
| --- | --- |
| GAACAGCTTCCATTACATCTGATGCTATTTCTTTAG | 516 a.u. |
| GAATATCAGAGAAGTGGGGTGAGCAAAGTATAATAG | 568 a.u. |
| GAAATGAAATAAGAAGTGATGATGCTAAAGTGGTAG | 543 a.u. |
| CTATGTTATCAGTGTCTGATGCAGAGGTATTACTTC | 521 a.u. |
| GAATTAGGTTGATGCCACGCACGACAATGTAGCTAG | 511 a.u. |
| GAAATTTCACATCATCAGGTGATGTCAACTCAGTAG | 2290 a.u. |
| CTATTTCATGCCATTGGTGACACGAAAAAAAAATTC | 576 a.u. |
| CTAGTAAATAGAACACACGTTTTTTAATTTATTTTC | 652 a.u. |
| GAAACTTAAAAACTTCAAATCACGTATGAAAAATAG | 711 a.u. |
| GAATTTTTGATAATTCACGTGTAATTAAGAACATAG | 2900 a.u. |
| CTATTACAAAATTTCCACGCAACAGCTTTTATTTTC | 507 a.u. |
| GAAACGACTTGCGCACATGTGAATCATTAACAATAG | 876 a.u. |
| GAAAGAAATGTGCCCAACGTGACCATGGCTCTTTAG | 1830 a.u. |
| GAACGTATTTGCGCTCACGTTGCACGAACACGGTAG | 1330 a.u. |
